Results from different studies.
Compare with care: the assays were run in different laboratories. In brackets after ≈: the same amount, converted by molar mass.
Organism: Mycolicibacterium smegmatis

`Cc1ccc2nc(C)c(C(=O)NCc3ccccc3)n2c1` gave an MIC of > 128 µM (microbial growth, broth dilution).
`CC(C)[C@H]1NC(=O)[C@H](Cc2ccccc2)NC(=O)[C@@H](C(C)C)NC(=O)[C@@H](C)NC(=O)[C@H](C)NC(=O)[C@@H](Cc2c(-c3ccc(-c4ccc5ccccc5c4)cc3)[nH]c3ccccc23)NC(=O)[C@@H](CO)NC1=O` gave an MIC90 of > 100 µM.
`NC1=NC2(CCCCC2)N(c2ccc(OCc3cn(CCCCOc4ccc5ccc(=O)oc5c4)nn3)cc2)C(N)=N1` gave an MIC50 of 0.7 µM (≈ 0.399 µg/mL) (microbial growth; ATCC700084 MC2155).
With `CC(C)[C@H]1NC(=O)[C@H](Cc2ccccc2)NC(=O)[C@@H](C(C)C)NC(=O)[C@@H](C)NC(=O)[C@H](CO)NC(=O)[C@@H](Cc2c(-c3ccc(-c4ccc(-c5ccccc5)cc4)cc3)[nH]c3ccccc23)NC(=O)[C@@H](CO)NC1=O` the MIC90 was > 100 µM.
`CCc1nc2ccc(OC(F)(F)F)cn2c1C(=O)NCc1ccc2oc(-c3ccc(Cl)cc3)nc2c1` has an MIC90 of > 100 µM.
`CC(C)[C@H]1NC(=O)[C@H](Cc2ccccc2)NC(=O)[C@@H](C(C)C)NC(=O)[C@@H](C)NC(=O)[C@H](CO)NC(=O)[C@@H](Cc2c(-c3ccc(-c4cccc5ccccc45)cc3)[nH]c3ccccc23)NC(=O)[C@@H](CO)NC1=O` has an MIC90 of > 100 µM.
`CCc1ccn2c(C(=O)N(C)C)c(C)nc2c1` gave an inhibition zone of 0 mm (microbial growth; MC2155; 2 mM, 20 h).
For `CCc1nc2cc(OC(F)(F)F)ccn2c1C(=O)NCc1ccc2oc(-c3ccc(OC(F)(F)F)cc3)nc2c1`, the MIC was > 50 µM (72 h).
For `CCc1ccn2c(C(=O)N(C)Cc3ccccc3)c(C)nc2c1`, the inhibition zone was 0 mm (microbial growth; MC2155; 2 mM, 20 h).
The MIC90 of `CCc1nc2ccc(Cl)cn2c1C(=O)NCc1ccc2oc(-c3ccc(OC(F)(F)F)cc3)nc2c1` is reported as > 100 µM.
The inhibition zone of `CCc1ccn2c(C(=O)NCc3ccccc3)c(C)nc2c1` is reported as 0 mm (microbial growth; MC2155; 2 mM, 20 h).
`CN[C@@H]1[C@H](O)[C@H](NC)[C@H]2O[C@]3(O)[C@H](O[C@@H]2[C@H]1O)O[C@H](C)C[C@H]3NC(=O)Cc1ccc(F)cn1` gave an MIC of 12.5 to 25 µg/mL.
`CCc1nc2cc(C(F)(F)F)ccn2c1C(=O)NCc1ccc2oc(-c3ccc(Cl)cc3)nc2c1` gave an MIC of > 50 µM (72 h).
`CC(C)[C@H]1NC(=O)[C@H](Cc2ccccc2)NC(=O)[C@@H](C(C)C)NC(=O)[C@@H](C)NC(=O)[C@H](CO)NC(=O)[C@@H](Cc2c(-c3ccc(-c4ccc(-c5ccccc5)cc4)cc3)[nH]c3ccccc23)NC(=O)[C@@H](C)NC1=O` gave an MIC90 of > 100 µM.
For `Cc1ccc(CNC(=O)C(=O)c2c(C)nc3ccc(C)cn23)cc1`, the MIC was > 128 µM (microbial growth, broth dilution).
`CC(C)[C@H]1NC(=O)[C@H](Cc2ccccc2)NC(=O)[C@@H](C(C)C)NC(=O)[C@@H](C)NC(=O)[C@H](CO)NC(=O)[C@@H](Cc2c(-c3ccc(-c4ccccc4)c4ccccc34)[nH]c3ccccc23)NC(=O)[C@@H](CO)NC1=O` has an MIC90 of > 100 µM.
`Cc1nc2cc(C(F)(F)F)ccn2c1C(=O)NCc1ccc2oc(-c3ccc(Cl)cc3)nc2c1` has an MIC90 of > 100 µM.
`CC(C)[C@H]1NC(=O)[C@H](Cc2ccccc2)NC(=O)[C@@H](C(C)C)NC(=O)[C@@H](C)NC(=O)[C@H](CO)NC(=O)[C@@H](Cc2c(-c3ccc(-c4ccc5ccccc5c4)cc3)[nH]c3ccccc23)NC(=O)[C@@H](CO)NC1=O` gave an MIC90 of > 100 µM.
The MIC of `Cc1nc2ccc(C(F)(F)F)cn2c1C(=O)NCc1ccc2oc(-c3ccc(Cl)cc3)nc2c1` is reported as > 100 µM (72 h).
`Cc1ccc2nc(C)c(C(=O)C(=O)NCc3ccccc3)n2c1` gave an inhibition zone of 0 mm (microbial growth; MC2155; 2 mM, 20 h).
For `CC(C)[C@H]1NC(=O)[C@H](Cc2ccccc2)NC(=O)[C@@H](C(C)C)NC(=O)[C@@H](C)NC(=O)[C@H](CO)NC(=O)[C@@H](Cc2c(-c3ccc(-c4ccccc4)c(F)c3)[nH]c3ccccc23)NC(=O)[C@@H](CO)NC1=O`, the MIC90 was > 100 µM.
`CCc1nc2ccc(Br)cn2c1C(=O)NCc1ccc2oc(-c3ccc(Cl)cc3)nc2c1` has an MIC90 of > 100 µM.
The inhibition zone of `Cc1ccc2nc(C)c(C(=O)C(=O)N(C)C)n2c1` is reported as 0 mm (microbial growth; MC2155; 2 mM, 20 h).
For `NC1=NC2(CCCCC2)N(c2ccc(OCc3cn(CCCCOc4ccc(CCC(=O)O)c(O)c4)nn3)cc2)C(N)=N1`, the MIC50 was 0.7 µM (≈ 0.413 µg/mL) (microbial growth; ATCC700084 MC2155).
With `CCc1nc2cc(Br)ccn2c1C(=O)NCc1ccc2oc(-c3ccc(OC(F)(F)F)cc3)nc2c1` the MIC90 was > 100 µM.

Excerpt of the above:
`CC(C)[C@H]1NC(=O)[C@H](Cc2ccccc2)NC(=O)[C@@H](C(C)C)NC(=O)[C@@H](C)NC(=O)[C@H](CO)NC(=O)[C@@H](Cc2c(-c3ccc(-c4ccc5ccccc5c4)cc3)[nH]c3ccccc23)NC(=O)[C@@H](CO)NC1=O` gave an MIC90 of > 100 µM.
`CC(C)[C@H]1NC(=O)[C@H](Cc2ccccc2)NC(=O)[C@@H](C(C)C)NC(=O)[C@@H](C)NC(=O)[C@H](CO)NC(=O)[C@@H](Cc2c(-c3ccc(-c4ccc(-c5ccccc5)cc4)cc3)[nH]c3ccccc23)NC(=O)[C@@H](C)NC1=O` gave an MIC90 of > 100 µM.
